# Measured values of several laboratories.
# Each numbered part is a random draw from the data of one study; scales do not carry over between parts.

# Set 1
# Target: RING finger protein unkempt homolog, zinc fingers 1-6, GST-SBP tag (UNK, Homo sapiens, UniProt Q9C0B0, residues 30-357)
# Chain of UniProt Q9C0B0 (30-357, looked up): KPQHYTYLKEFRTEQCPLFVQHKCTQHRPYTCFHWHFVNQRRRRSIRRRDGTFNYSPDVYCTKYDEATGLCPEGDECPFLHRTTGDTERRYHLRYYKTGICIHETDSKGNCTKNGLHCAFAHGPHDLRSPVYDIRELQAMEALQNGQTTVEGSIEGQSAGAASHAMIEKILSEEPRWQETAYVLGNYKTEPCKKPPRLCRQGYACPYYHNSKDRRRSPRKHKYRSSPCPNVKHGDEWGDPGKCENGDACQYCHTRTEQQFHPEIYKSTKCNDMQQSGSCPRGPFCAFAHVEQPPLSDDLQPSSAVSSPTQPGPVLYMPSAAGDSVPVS
# Technique: RNA Bind-n-Seq
# Molecule type: RNA
# Sample: in vitro
# Concentration: not given
# Notes: RNA with constant flanks, human and mouse sites, ends assumed
# Relative to: input RNA pool
# Direction: higher = stronger binding
# All sequences stand within: GGGAGUUCUACAGUCCGACGAUC … CAACAGAGGAUUGAGCAUCA
Sequence,bound/input enrichment
GUACCUAGAAAUGCUGAACACUACAAGCAAAGACAUUCACACGGGCAUUAUGGCUGUGAAUAUAGGAAGGAUCCAAAAAGACCCGUCGCGUGGAGAAUGGACAGUGAGAAACAUGGACAG,0.537 ratio
CAGACACUCAAGCCUUGCACAGACACACAUGGCUUUAUUUGUCCUUUCAGCUGAGAGCACCUUCAUUGAUCUCUAAGGAGCAGGUUCUGUCCUAACUUGCCUGUUACAUCAUUCCCUUGU,0.0792 ratio
CUGAGCCAGCUAGACCAGCGCUUUUCAGAGAAUUACUCUACCCAUAGCAGUCCUCUGGAUAGUAUUUAUUACCACCGAGAGCUUCUCUGCUAUUCUCUGGAUGGACUUCGUGUAGAUCUA,0.458 ratio
AGACCACACCUACCUGUCAUCUACUUUCACCAAAGGAGAACGGGCGUUACUGUCCAUUACAGAUAACAGUUCAUCCUCAGACAUUGUGGAGAGCUCAACUUCUUAUAUUAAAAUCUCAAA,0.154 ratio
GAGCAGAAACACACCCUCCAGCAGCACCAGGAAACGCCGAAGAAGAAAACAGGCUAUGGUGAAAUAAACGGUAAUGCUGGAGAAAGAGAAAUAUCUUUAAAGAGCCUCAGUUCUGAUGAA,0.105 ratio
CUCCUGGCCAGACGCUGCCGCUGCCGCUGCACCACGGCGUUUUUUUACAACAUUCAACUUUAGUAUUUUUACUAUUAUAAUAUAAUAUGGAACCUUCCCUCCAAAUUCUUCAAUAAAAGU,45 ratio
GUGGCCUUCCAGUUCACAGUCACCCCUGAUGGCAUCGAUCUCCGCCUGAGCCAUGAAGCCCUCAAACAGAUCUGCCUGUCAGGGCUGCACUCCUGGAAGAAGAAGUUCAUCCGAUUCAAG,0.0871 ratio
AGGUGCAAAGAAAAAGACUUGGAUGAUACCUGCAUGCUGCAUAAGAAGUCAGAAAGCCCAUUUAGAGAAACAGAACCUCUGGUGUCACCACACCAAGAUAAACUCAUGUCUAUGCCAGUU,0.878 ratio
UUCCAUUUAGCUUACAUGUAAAUGUAAUUAUUUAAAACACACACACUGCUCUGCGUUGUAUAGUUUUUCCUUUUUUGUAUGUAACAGAACACAUUUCAGAUUGUAUUUAAUUUAAAUAUU,15.1 ratio
GCAAAAAGCUGGAAGAGGAGCGGCACAACCUCAUCACAGAGAUGGUUGCACUCAAUCCGGAUUUCAAGCCACCUGCAGAUUACAAACCUCCAGCAACACGUGUGAGUGAUAAAGUCAUGA,0.0903 ratio
AUGGAAGAUACCCUGAAGAGGAGGUUUUUCUAUGAUCAAGCUUUUGCUAUUUAUGGAGGUGUUAGUGGUCUGUAUGACUUUGGGCCAGUUGGCUGUGCUUUGAAGAACAAUAUUAUUCAG,0.184 ratio

# Set 2
# Target: RNA binding protein fox-1 homolog 2, RRM domain, GST-SBP tag (RBFOX2, Homo sapiens, UniProt O43251-10, residues 100-194)
# Technique: RNA Bind-n-Seq
# Molecule type: RNA
# Sample: in vitro
# Concentration: 365 nM
# Notes: natural RNA segment, single round, ends assumed
# Relative to: no-protein control
# Direction: higher = stronger binding
# All sequences stand within: GGGAGUUCUACAGUCCGACGAUC … UGGAAUUCUCGGGUGCCAA
# Construct (chain): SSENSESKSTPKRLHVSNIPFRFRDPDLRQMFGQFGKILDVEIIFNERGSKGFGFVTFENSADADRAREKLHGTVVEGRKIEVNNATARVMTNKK
Sequence,RBNS enrichment (R)
CCAUCACCAGUGGAGUUUUUUUAUUUGUUAUUUUUUUAAAAGUUUAGGUGCCUUUGCGGAUGACCUCAUUUUGACGUUGAAAAAAUGAUUUUUUAAUAUGUGAACACUGC,0.464
CUAGGAAAAGAGACAUUCUUGGCUCUUCUCUUUCCUGGUGUGCCAUGAUCCAGGGAAUGAAAAGAAAUUUGACCCUGGAUUAGUUUCUUUGUCGGCGCUGAGGAACACUG,0.492
UUUCUGCACAGGUUUAGGUGAGUAGACCACAUGCCCUAUGAGGCAAGCACCGAGCAAACCCUAGGGUGUGCCUCACCUGCGAUGCUGUGGGCAAACACUUCUCAGCUGGU,0.312
UAUAGAGACUAGGAGUUAAGGGGCCUGCCUAAGAUUGCAGUGAUAAAGAACUGAACCCUAAAUCAGCUCCCACUAAUGAAACCCUGCUUUCCUUGUAUCUUUUAAACUCA,0.677
GUGAGUCUCCUGGAACAGUGGAGAUGCCAGGAGAAAGAAAGACAGGUACUAGCUGAGGUUAUUUUAAAAGCAGCAGUGUGCCUACUUUUUGGAGUGUAACCGGGGAGGGA,1.06
GAGAAUUGCUUGAACCCAGGAGGUGGAGGUUGCAGUAAGCCAAGAUCACACCACUGCACUCCAACCUGGACAACAGAGCGAGACUCCAUCUCAAAAAAAAAAAAAAAUUG,0.751
UGCAUCUGAUAGUACACAGACUGAUGCACGUAGCAUUUCCCAAACUGUUUGGACCUCAGGACCUUUUCCCCUCUGGGACACUGCAUGCCGUGGAAAACCUUUUCAGAAAC,6.31
GAGCAGAAAAGAGCACUGAGAGCACUUGGGACCCCUGGAUCAGAGAGCAUCUGUGUGUCCUGCAGCCUCCUCUGAACUUGUGGUUCAUUCUCAGGCUGGGGUGGACUCAG,0.194
UGGCCCACAGCUCCAUGGACUUCUGAGCCGACAGUCUUCCCUUCUCUCCAAGAGGCCUCAGUCCCCAAGACUGCCACCAGUCUACACAUACAGCAGCCCCCUGGACAGAA,0.302
UACUGCUGUUUGACUUUCCCCUUGACAUUUCUCAGAAAAAUGCAGGGCUGCAGCUGAGAGCAGACUGCUGAUUGGUGACUCUGGUCUGCCUAGCUUUUGCAACUCUUUAA,0.817
UGAGCUUGCCAGUGGUGACUGCCAGGAACGUCCUAUGAUCCACUUUGUUGGUUGUUGUUGCAGAAGACUGAACUGUUUUGGAAUAUUUAACAAUUACAGAAACAGUCAAG,0.773
UCCCCUACUACAGUUCUUGCUUCCAUGCAAGGUGAACCUGAGGGGAGGAAGGCGUGGCUCUCUGAAACCUUAACUGCAGAUGAAGUACAGUGGCAAGGAGGAGAGGGUGU,0.25

# Set 3
# Target: Histone acetyltransferase KAT6A, winged helix 2, GST fusion (KAT6A, Homo sapiens, UniProt Q92794, residues 85-181)
# Technique: protein binding microarray
# Molecule type: double-stranded DNA, one strand shown
# Sample: in vitro
# Concentration: not given
# Notes: 8-mer, flanks averaged, mean of 2 arrays, mostly near background
# Relative to: not given
# Direction: higher = stronger binding
# Residues (chain): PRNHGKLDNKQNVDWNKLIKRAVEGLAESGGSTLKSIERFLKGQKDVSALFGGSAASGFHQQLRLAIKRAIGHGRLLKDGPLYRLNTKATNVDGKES
Sequence,E-score
CATAGATG,-0.0771
CGGTACCG,0.245
GTCATGCA,-0.0197
GATACTTA,-0.0102
TATGTGGA,-0.0274
GTTGCCGA,0.028
ACAAAGTG,-0.0413
AGTAAGTG,-0.127
CCCAAAAG,0.19
GGAATGTA,0.0308
GGTGAGTA,-0.0167
AATCTGTC,-0.0368
AGCGCACA,0.00212
CCTCGCAC,0.0783
AGCCAAAG,0.128
GGACCTCC,0.15
CTGACACC,0.0415
AGGGTCTG,-0.206
GGCCTCGA,0.0129
AAGCGTGC,0.0348
CAGGCGTA,0.105
AATAAGCC,-0.0275
CTGTGGGA,-0.0697
ACCAGTGC,0.0182
GGTTAATA,0.13

# Set 4
# Target: UBE2I UBC core domain (UniProt P63279)
# Technique: yeast two-hybrid
# Sample: yeast
# Notes: mostly zero background
# Relative to: not given
# Direction: higher = stronger interaction
# B1: ZMYND11 RING domain (UniProt Q15326); chain DEIDWETENHDWYCFECHLPGEVLICDLCFRVYHSKCLSDEFRLRDSSSPWQCPVCRSIKKKNTNKQEM
# B2: HLTF RING domain (UniProt Q14527); chain LILSSGSDEECAICLDSLTVPVITHCAHVFCKPCICQVIQNEQPHAKCPLCRNDIHEDNLLE
# B3: TRIM41 RING domain (UniProt Q8WV44); chain PVQTLQEEAVCAICLDYFTDPVSIGCGHNFCRVCVTQLWGGEDEEDRDELDREEEEEDGEEE
# B4: BFAR RING domain (UniProt Q9NZS9); chain GPQISVSEFSCHCCYDILVNPTTLNCGHSFCRHCLALWWASSKKTECPECREKWEGFPKVS
# B5: ZNRF4 RING domain (UniProt Q8WWF5); chain VRTFTWHNDLCAICLDEYEEGDQLKILPCSHTYHCKCIDPWFSQAPRRSCPVCKQSVAATEDSF
# B6: RNF103 RING domain (UniProt O00237); chain WPADMLHCTECVVCLENFENGCLLMGLPCGHVFHQNCIVMWLAGGRHCCPVCRWPSYKKKQPY
# B7: ARIH2 RING domain (UniProt O95376); chain HVPTSHPPHHCAVCMQFVRKENLLSLACQHQFCRSCWEQHCSVLVKDGVGVGVSCMAQDCPLRTPEDFVF
# B8: RNF182 RING domain (UniProt Q8N6D2); chain AESQASDELECKICYNRYNLKQRKPKVLECCHRVCAKCLYKIIDFGDSPQGVIVCPFCRFETCLPDDEV
# B9: RUFY1 RING domain (UniProt Q96T51); chain QALKGHAWLKDDEATHCRQCEKEFSISRRKHHCRNCGHIFCNTCSSNELALPSYPKPVRVCDSCHTLLLQRCSSTAS
# B10: NFX1 RING domain (UniProt Q12986); chain IEQLTTEKYECMVCCELVRVTAPVWSCQSCYHVFHLNCIKKWARSPASQADGQSGWRCPACQNVSAHVPNTY
Molecule,lacZ reporter activity
B1 (ZMYND11 RING domain),0
ASEEEFQFLRCQQCQAEAKCPKLLPCLHTLCSGCLEASGMQCPICQAPWPLGADTP (PML RING domain (UniProt P29590)),0
B2 (HLTF RING domain),0
B3 (TRIM41 RING domain),0
B4 (BFAR RING domain),0
FAEQPSVKLCCQLCCSVFKDPVITTCGHTFCRRCALKSEKCPVDNVKLTVVVNNI (TRAF7 RING domain (UniProt Q6Q0C0)),0
ASPKIFQKTKCSICNSALELPSVHFLCGHSFHQHCFESYSESDADCPTCLPENRKVMDMI (VPS11 RING domain (UniProt Q9H270)),0
B5 (ZNRF4 RING domain),0
B6 (RNF103 RING domain),0
LEALSSDFLACKICLEQLRAPKTLPCLHTYCQDCLAQLADGGRVRCPECRETVPVPPEGV (TRIM56 RING domain (UniProt Q9BRZ2)),0
B7 (ARIH2 RING domain),0
B8 (RNF182 RING domain),0
B9 (RUFY1 RING domain),0
B10 (NFX1 RING domain),0

# Repeated from above (set 1):
Sequence,bound/input enrichment
GUACCUAGAAAUGCUGAACACUACAAGCAAAGACAUUCACACGGGCAUUAUGGCUGUGAAUAUAGGAAGGAUCCAAAAAGACCCGUCGCGUGGAGAAUGGACAGUGAGAAACAUGGACAG,0.537 ratio
CAGACACUCAAGCCUUGCACAGACACACAUGGCUUUAUUUGUCCUUUCAGCUGAGAGCACCUUCAUUGAUCUCUAAGGAGCAGGUUCUGUCCUAACUUGCCUGUUACAUCAUUCCCUUGU,0.0792 ratio
CUGAGCCAGCUAGACCAGCGCUUUUCAGAGAAUUACUCUACCCAUAGCAGUCCUCUGGAUAGUAUUUAUUACCACCGAGAGCUUCUCUGCUAUUCUCUGGAUGGACUUCGUGUAGAUCUA,0.458 ratio
AGACCACACCUACCUGUCAUCUACUUUCACCAAAGGAGAACGGGCGUUACUGUCCAUUACAGAUAACAGUUCAUCCUCAGACAUUGUGGAGAGCUCAACUUCUUAUAUUAAAAUCUCAAA,0.154 ratio
GAGCAGAAACACACCCUCCAGCAGCACCAGGAAACGCCGAAGAAGAAAACAGGCUAUGGUGAAAUAAACGGUAAUGCUGGAGAAAGAGAAAUAUCUUUAAAGAGCCUCAGUUCUGAUGAA,0.105 ratio
CUCCUGGCCAGACGCUGCCGCUGCCGCUGCACCACGGCGUUUUUUUACAACAUUCAACUUUAGUAUUUUUACUAUUAUAAUAUAAUAUGGAACCUUCCCUCCAAAUUCUUCAAUAAAAGU,45 ratio
GUGGCCUUCCAGUUCACAGUCACCCCUGAUGGCAUCGAUCUCCGCCUGAGCCAUGAAGCCCUCAAACAGAUCUGCCUGUCAGGGCUGCACUCCUGGAAGAAGAAGUUCAUCCGAUUCAAG,0.0871 ratio
